Assay results pooled from the literature.
Parts stem from different laboratories: compare values within a part only. Several values in a cell are separate wells, animals, samples, runs or records.

Series 1
Target: Cyclin-dependent kinase 2/cyclin E1 (Homo sapiens, UniProt P24864+P24941)
Read-out: binding
Method: competitive fluorescence polarization
Together with: FITC-PKN2-RxL peptide tracer
| SMILES | Kd [µM] |
| --- | --- |
| CC(C)C[C@H](NC(=O)[C@H](CCC(N)=O)NC(=O)[C@H](CO)NC(=O)[C@H](CCCNC(=N)N)NC(=O)[C@H](C)NC(=O)CNC(=O)[C@@H](N)CCCNC(=N)N)C(=O)N[C@@H](Cc1ccccc1)C(=O)N1CCC[C@H]1C(=O)N1CCC[C@H]1C(=O)N[C@H](C(=O)N[C@@H](CCC(=O)O)C(=O)N[C@@H](C)C(=O)O)[C@@H](C)O | 164 |
| CSCC[C@H](NC(=O)[C@@H](NC(=O)[C@H](CC(=O)O)NC(=O)[C@H](CO)NC(=O)[C@H](Cc1ccccc1)NC(=O)[C@H](CC(=O)O)NC(=O)[C@H](CC(C)C)NC(=O)[C@H](CCCCN)NC(=O)[C@H](CCC(N)=O)NC(=O)[C@@H](NC(=O)[C@H](C)NC(=O)[C@H](CO)NC(=O)[C@@H](N)C(C)C)C(C)C)[C@@H](C)O)C(=O)O | 57 |
| CC(C)C[C@H](NC(=O)[C@H](CC(N)=O)NC(=O)[C@H](CCCNC(=N)N)NC(=O)[C@H](CCCCN)NC(=O)[C@H](C)NC(=O)[C@H](CC(N)=O)NC(=O)[C@@H](N)CCCCN)C(=O)N[C@@H](CO)C(=O)N[C@@H](CO)C(=O)N[C@@H](CCC(=O)O)C(=O)N[C@@H](Cc1ccccc1)C(=O)N[C@@H](C)C(=O)N[C@@H](CC(N)=O)C(=O)O | 6.22 |
| CC(C)C[C@H](NC(=O)[C@H](CCCNC(=N)N)NC(=O)[C@H](CCCNC(=N)N)NC(=O)[C@H](CCCCN)NC(=O)[C@H](C)NC(=O)[C@H](CO)NC(=O)CN)C(=O)N[C@@H](Cc1ccccc1)C(=O)NCC(=O)N[C@@H](CCC(=O)O)C(=O)N[C@@H](CC(=O)O)C(=O)N1CCC[C@H]1C(=O)N1CCC[C@H]1C(=O)O | 0.596 |
| CC[C@H](C)[C@H](NC(=O)[C@H](CC(=O)O)NC(=O)[C@H](CC(C)C)NC(=O)[C@H](CC(=O)O)NC(=O)[C@H](CC(C)C)NC(=O)[C@H](CCCNC(=N)N)NC(=O)[C@H](CCCNC(=N)N)NC(=O)[C@H](CCCCN)NC(=O)[C@@H](NC(=O)[C@H](CCCCN)NC(=O)[C@@H](N)CCC(=O)O)C(C)C)C(=O)N[C@@H](CC(=O)O)C(=O)NCC(=O)O | 8.13 |

Series 2
Target: DNA polymerase theta, ATPase domain (POLQ, Homo sapiens, UniProt O75417)
Read-out: enzyme activity
Mode: inhibitor
Concentration: 77 µM
| Structure (SMILES) | remaining activity [%] |
| --- | --- |
| C[C@]12CC[C@H](O)C[C@H]1CC[C@@H]1[C@@H]2C[C@@H](O)[C@]2(C)[C@@H](C3=CC(=O)OC3)CC[C@]12O | 103 |
| CN1C[C@H](CO)C=C2c3cccc4[nH]cc(c34)C[C@H]21 | 100 |
| CC(C)(C)OC(=O)NC1[C@H]2CNC[C@@H]12 (stereo partly shown) | 100 |
| CC1(C)CC(O)CC(C)(C)N1[O] | 97.5 |
| Cc1nccc2c1[nH]c1cc(O)ccc12 | 103 |
| Oc1ccc2c3c1O[C@H]1[C@@H](O)CC[C@@]4(O)[C@@H](C2)N(CC2CCC2)CC[C@]314 | 99.2 |
| O=C1Nc2ccc3ncsc3c2/C1=C/c1cnc[nH]1 | 111 |
| CN1CCc2cc3c(cc2C1O)OCO3 (stereo not shown) | 99 |
| Fc1cc(F)c2c(c1)[C@H]1C=CC[C@H]1C(c1cccnc1)N2 (stereo partly shown) | 110 |
| C[C@H](Cc1ccc2c(c1)OC(C(=O)O)(C(=O)O)O2)NC[C@H](O)c1cccc(Cl)c1 | 97.6 |
| O=c1[nH]c2ccccc2n1C1CCN(Cc2ccc(-c3[nH]c4cc5ncnc5cc4nc3-c3ccccc3)cc2)CC1 | 76.6 |

Series 3
Compound: CO[C@@H](C)c1c(Nc2ccc([C@@H](N(C)C(=O)C3CCS(=O)(=O)CC3)C(F)(F)F)cc2)cnc2cc(Cl)nn12
Concentration: 10 µM
| target | test | inhibition |
| --- | --- | --- |
| Sodium-dependent serotonin transporter (SLC6A4, Homo sapiens, UniProt P31645) | binding, radioligand binding | 14.6% |
| Kappa-type opioid receptor (OPRK1, Homo sapiens, UniProt P41145) | binding, radioligand binding | 29.4% |
| 5-hydroxytryptamine receptor 1A (HTR1A, Homo sapiens, UniProt P08908) | ligand displacement | -11.6% |
| Muscarinic acetylcholine receptor M3 (CHRM3, Homo sapiens, UniProt P20309) | binding, radioligand binding | -2.58% |
| Sodium-dependent dopamine transporter (SLC6A3, Homo sapiens, UniProt Q01959) | binding, radioligand binding | -18.1% |
| Mu-type opioid receptor (OPRM1, Homo sapiens, UniProt P35372) | binding, radioligand binding | 6.39% |
| D(1B) dopamine receptor (DRD5, Homo sapiens, UniProt P21918) | binding, radioligand binding | 4.72% |
| Sodium-dependent noradrenaline transporter (SLC6A2, Homo sapiens, UniProt P23975) | binding, radioligand binding | -20.6% |

Series 4
Cell line: mouse MPNST tumor cells
Method: high-content immunofluorescence imaging
Refers to: nuclear SOX9
Concentration: 10 µM
Time: 12 h
Notes: mean of 2 replicates
Reference: DMSO control
Direction: higher = more nuclear SOX9
| Structure (SMILES) | nuclear SOX9 intensity |
| --- | --- |
| C[N+]1(C)[C@@H]2CC[C@H]1C[C@@H](OC(=O)C(CO)c1ccccc1)C2 (stereo partly shown) | 108 % of DMSO |
| CC(C)c1cccc(C(C)C)c1O | 79.6 % of DMSO |
| CN(C)[C@@H]1C(=O)C(C(N)=O)=C(O)[C@@]2(O)C(=O)C3=C(O)c4c(O)cccc4[C@@](C)(O)[C@H]3[C@H](O)[C@@H]12 | 118 % of DMSO |
| CC(O)(CS(=O)(=O)c1ccc(F)cc1)C(=O)Nc1ccc(C#N)c(C(F)(F)F)c1 (stereo not shown) | 116 % of DMSO and 82.7 % of DMSO and 104 % of DMSO |

Excerpt of the above (series 2):
| Structure (SMILES) | remaining activity [%] |
| --- | --- |
| Fc1cc(F)c2c(c1)[C@H]1C=CC[C@H]1C(c1cccnc1)N2 (stereo partly shown) | 110 |
| C[C@H](Cc1ccc2c(c1)OC(C(=O)O)(C(=O)O)O2)NC[C@H](O)c1cccc(Cl)c1 | 97.6 |
| O=c1[nH]c2ccccc2n1C1CCN(Cc2ccc(-c3[nH]c4cc5ncnc5cc4nc3-c3ccccc3)cc2)CC1 | 76.6 |
